Experimental data collected from several papers.
Each numbered part is a random draw from the data of one study; scales do not carry over between parts. Substitutions count along the parent as printed.

Block 1 — method: protein-binding microarray; form: double-stranded DNA, one strand shown; sample: in vitro; concentration: not given; direction: higher = stronger binding
Target: Protein C-ets-1 (ETS1, Homo sapiens, UniProt P14921, residues 1-441, Y397A, full length assumed)
Chain of UniProt P14921 (whole entry, unmodified, looked up): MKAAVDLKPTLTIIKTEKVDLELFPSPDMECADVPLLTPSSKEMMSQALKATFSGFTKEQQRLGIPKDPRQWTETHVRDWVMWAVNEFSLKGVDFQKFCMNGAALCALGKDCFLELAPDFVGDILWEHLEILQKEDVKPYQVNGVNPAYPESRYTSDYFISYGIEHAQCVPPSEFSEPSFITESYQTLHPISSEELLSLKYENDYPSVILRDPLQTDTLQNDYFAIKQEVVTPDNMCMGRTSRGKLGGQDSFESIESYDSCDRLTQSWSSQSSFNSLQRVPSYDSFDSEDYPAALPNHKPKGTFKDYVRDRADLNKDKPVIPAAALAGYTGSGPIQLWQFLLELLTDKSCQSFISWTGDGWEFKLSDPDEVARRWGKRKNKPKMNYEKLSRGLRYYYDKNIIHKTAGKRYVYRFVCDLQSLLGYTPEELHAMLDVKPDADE
Notes: k-mer, scored over probes, only values ≥0.25
For `ATATGTCG`, the E-score was 0.346.
For `TCCGGAAA`, the E-score was 0.348.
For `ATAGCAAA`, the E-score was 0.334.
The E-score of `CGATTTGC` is reported as 0.25.
`GTGCCAAC` has an E-score of 0.274.
`CATGGCAA` has an E-score of 0.257.
The E-score of `TCCGGCAA` is reported as 0.333.
`CGTTTGGC` has an E-score of 0.264.

Block 2 — method: RNA Bind-n-Seq; form: RNA; sample: in vitro; concentration: 365 nM; baseline: no-protein control; direction: higher = stronger binding
Target: RNA binding protein fox-1 homolog 2, RRM domain, GST-SBP tag (RBFOX2, Homo sapiens, UniProt O43251-10, residues 100-194)
Notes: natural RNA segment, single round, ends assumed
All sequences stand within: GGGAGUUCUACAGUCCGACGAUC … UGGAAUUCUCGGGUGCCAA
Target sequence (chain): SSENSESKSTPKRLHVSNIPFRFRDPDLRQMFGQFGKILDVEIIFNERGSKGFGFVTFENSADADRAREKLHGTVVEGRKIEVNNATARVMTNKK
Under “RBNS enrichment (R)”, `UUGCAUAGAGGUUCAAGUUCAAAGCUCAGACACACCAGUCACUCAAACAACCGAAGCUGUGAAAAAGGUCGAAGAAACUGUGGCAACUUCAGAGAUGGAUGAAAGUUUGG` is recorded as 0.674.
Under “RBNS enrichment (R)”, `GAAGUCUUCUGCUCACCCUUCCUUAAAGAUCAGAUAAACUUGUCAUCCCUUCCCAGCAAUGAUGACAGGAAAAUGGAAGUGGCAAGUUUUCCUUCUAGUAUCCGAAGAAU` is recorded as 0.328.
`AGGGAGAGCUUCCUCGCUGGACGGGACCCACCUUUCUGUGUUGUUUACACCUUGCCCUUCUGUGCGUUCCAUUUCUGUAGUAUGUUUCCUCUUUCCUCCAUUCAUCAUCA` — result for “RBNS enrichment (R)”: 0.748.
Under “RBNS enrichment (R)”, `UUUACUGAAUCUGUCUACCCUUCAUUCAUGAGAACUCCAGAAUGAGUGUUGACCACUGAAGCAUCUUUUAAGUCUGUGUUCCAUUGUGCCAUUCAGGUUUGCUGUCACAU` is recorded as 6.04.
`UCCCCGUCGCAGACGGAGUGCACGUGCCCUGCGCCACAUCCUCACGCUCGGUGGAGGGACGCGUGCGGCGGGACGGUGCCUACGGGUACUUGCAGCUGUGUCCCAUGUGG` — result for “RBNS enrichment (R)”: 0.613.
Under “RBNS enrichment (R)”, `GGCUGGUGCUGGUGCCAUGGACUCUGCCCAGAGCCUUCUUGUUUAUGAUCAGCUCCAGCUACCUGGGCAGUUGUGGUGGGGUGGAUGGGAAGGCCCACAGCCCAAGGGAU` is recorded as 1.15.
`UAGUCCAUUGGCAAGCUUUAUCAAUAGCUUAAUGGCAGAGGAUAAAGGCUCAAACAGAUGAUGUUUUUUCCACAGAAAAACAAAUUGUUGAAUCUAUUCCGUGCAUAUUU` — result for “RBNS enrichment (R)”: 0.422.
`GGGCCAUGUGAUUGUUUUAUUUUGGAAUUGGUGUAUAUCAUGAAGCCUUGCUGAACUAAGUUUUGUGUGUAUAUAUUUAAAGAUCAGUGUUUAAAUAAAAAAAAAAAAAA` — result for “RBNS enrichment (R)”: 0.69.

Block 3 — method: EMSA with sequencing; form: double-stranded DNA, one strand shown; sample: in vitro; concentration: 10 and 20 nM; baseline: negative control set to 0; direction: higher = stronger binding
Target: Hepatocyte nuclear factor 3-alpha (Foxa1, Mus musculus, UniProt P35582, residues 1-468, full length assumed)
Notes: whole designed probe, mean of two concentrations, ends assumed
All sequences stand within: GTGAGCGGTGCCCATTGATGGGGAAC … TTTCACTGGGATCGTGGGGAC
Construct (chain): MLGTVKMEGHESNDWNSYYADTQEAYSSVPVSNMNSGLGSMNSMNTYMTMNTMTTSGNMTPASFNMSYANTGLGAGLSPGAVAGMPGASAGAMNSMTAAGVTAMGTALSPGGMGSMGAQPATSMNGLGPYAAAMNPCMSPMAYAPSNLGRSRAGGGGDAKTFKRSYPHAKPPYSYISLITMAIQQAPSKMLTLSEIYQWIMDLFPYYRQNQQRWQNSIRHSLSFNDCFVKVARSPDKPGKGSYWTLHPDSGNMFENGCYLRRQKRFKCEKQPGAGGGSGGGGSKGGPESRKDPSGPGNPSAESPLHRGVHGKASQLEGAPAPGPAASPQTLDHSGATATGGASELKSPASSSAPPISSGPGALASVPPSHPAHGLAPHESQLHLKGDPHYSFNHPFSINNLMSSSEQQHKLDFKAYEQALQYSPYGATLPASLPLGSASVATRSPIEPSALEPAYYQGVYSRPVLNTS
`TAAACCAAGGTTTAAACTATTTCCTAGTGTCAAAAATATAATGAATACATGTTGGATTATGTGACTGGTATTTAGCAAAAGGTGCACACATGTCTGTTTACTTTGGTGTTTCATGATTTTGACCTTTTAGGTGCTTCTTGTTAGTAATTGGTTGAAGAGGAGTTGTAGCCAATTTTAATGTTTGTAATTCATA`: “normalised bound fraction” 0.435 ratio.
For `ACAGCCCCAGCTGACCTGGGGAAGTGCATGTCAGCATCCTGCTTCATTAGGACACCTCCAAGCCCAGCTTAGACCTGGATTCCAGGTGACCCCCTGTTTACTCTGAGCCCAGACAGAGGACAGAGAAGTGTGCAAGGGTGGGGACCCTCATCACAGCCCTTGACTCTGTAAGGCATATGGGTTTGTGCACGTG`, “normalised bound fraction” read 0.114 ratio.
Under “normalised bound fraction”, `AACAATTTAATTCCATTTTTATCAATGATATCTTCTTCTATGGAAGAAAATTAAGATAATTCAATGTTTTCCTACATCATTTAATATAAGGTTTATTTACTCTTGGAAACTTCCATTCTTTATTGCTCCTCAACAATAGCAACCACAAAAATTCCCATAATTCTCTCTTTAAAGATCAACCAAAATTAAGGAA` is recorded as 0.241 ratio.
`CCCTCATCCTGGGTGTCGGGGTGGGAGGTGTTCTCATCATGAATGGGAGGCGTACCCAGATCCAGCTCTGCCTTTTTTTAACCAAACCAGAGTGTAATCTAATGGCTGTGTGACTCACCATAATCGACATAGCAAGATATGATACATGCCAGGAGAGAAAAAGAAAGTGCTGATGGAAAAATAATCTCATTAG` — result for “normalised bound fraction”: 0.038 ratio.
`TTCTACTCCAGTTCCAGAAAAGTTATGGAAGTCTCAGTTCCTGTGTGTGCCATCACTTTAGCCTCCAGGAAGCTATCTCTTAGTCTCTCCTACTGTAAACATGTCTCCCTGAGTCACCACAGCATCTGTTGTTTCTAGGTGAAGGACTAATACAAATAACAGGGAGGCGCCTGGCATCTGGCCACCTGAACAC`: “normalised bound fraction” 0.282 ratio.
`GAAGGAAATAATGGAGCCAACCATGCATATAACCTCAGGGAGAACATTCTAGGTAGAGGGAACAGCAAGTGCAAAGGCCCTGAAGTGGGGGTTTGTTTACCTTGTTGCACAATCTGCACACAGGCCAGTACAATTGGAATGGATGGGAAATGTAAAAGAGAGAAGTTGAAAAGGCCAGGTGCAGTGGCTCATG` — result for “normalised bound fraction”: 0.43 ratio.
`GTACAACTTCTCTCCAAGACCTTACTTATATATCTAAATTTCATACTTCATAACATATAAAATAAATCCTCTTCTCAGCTTCTTTGTACCAACATGTTTACATTGTACATTTTTACTCTCTTTAGAATTTTATTTTTTTTAAATACAAAAGAAAAAATAGGGCAGATATTGAAAAGCATATGTATAAATTCTT` — result for “normalised bound fraction”: 0.355 ratio.
`TTATGATCTGAGTATATATAGTAAGTACCTCCCCTTTCAGGGTAAGGCAGTAGGTAATGGTGAAAAACAGGGAAGCAGGTGACTCAGGTTGAGTAAACAACACCAAGCATATCTGACTCAAGGAATGCTTCAGAGGCCAGGGGTGCATGCCTGTAATCCCAGCACCTTGGAAGGCTGACACAGGAGGATCACT` — result for “normalised bound fraction”: 0.406 ratio.

Other studies, line by line — starting sequence: viral docking peptide; KGVKRKLFAEDSS
Under “normalised enrichment score”, `V3K` is recorded as 0.585 (CCNE1, cyclin fold, Cln2 fusion (human); yeast growth competition, sequencing; yeast; strong parent motif; baseline: not given, higher = stronger binding).

Some of these lines once more (other studies, line by line):
Under “normalised enrichment score”, `V3K` is recorded as 0.585 (CCNE1, cyclin fold, Cln2 fusion (human); yeast growth competition, sequencing; yeast; strong parent motif; baseline: not given, higher = stronger binding).
